Measurements pooled from the literature.
Protocols differ between the studies behind these lines. “And” joins repeats or separate records; there may be more than shown. ± gives the spread as reported.

C/C(=N\Nc1ncnc2sc3c(c12)CCCC3)c1cc(O)ccc1O
IC50 (BJAB; cell growth or viability, CCK-8): 0.255 µM

C[n+]1c(/C=C/c2ccc(N(c3ccccc3)c3ccccc3)cc2)cc(/C=C2\Sc3ccccc3N2CCCN2CCCC2)c2ccccc21
IC50 (HK-2; cell growth or viability, MTT; 36 h): 19.1 µM

CNS(=O)(=O)Nc1nccc(Cc2c(C)c3ccc(Oc4ncccc4F)cc3oc2=O)c1F
IC50 (SK-N-DZ; cell viability, CellTiter-Glo; 7 days): > 1 µM

O=C(NCCOCCOCCOCCNC(=O)c1cc2ccccc2c2ccccc12)c1cc(C(=O)N2CCNCCNCCNCC2)c(O)c(C(=O)N2CCNCCNCCNCC2)c1
IC50 (PK-59; cell growth or viability, MTT; 24 h): > 1000 µM

C=C(C)C(C)(C)CCC(C)C1CCC2(C)C3CCC4C(C)C(O)CCC45CC35CCC12C (stereo not drawn)
IC50 (T47D breast cancer; cell viability, MTT; DMEM with 10% FBS; 48 h): > 200 µM

N#Cc1c(N)nc2c(c1-c1ccccc1)Cc1cc(O)ccc1-2
IC50 (HBP-ALL; cell viability, CellTiter-Glo; no inhibition at 100 µM): 20.2 µM

O=C(Nc1ccccc1)C12CC3CC(C1)CC(n1cnc([N+](=O)[O-])n1)(C3)C2
translation activity (Trypanosoma cruzi; reporter mRNA translation, inhibitor, measured: Renilla luciferase mRNA; cell-free extract; concentration not given, test 2; reference: positive over negative control): 138% and 105%

CC(C)c1ccc(N(C)c2ccc3c(c2)OCC[C@H]3CNc2cnccc2C(=O)O)cc1
IC50 (HT55; cell growth or viability, ATP luminescence; 7 days): 0.0142 µM

CC(C)Oc1ccc(CNCCC2(C(C)C)CCOC(C)(C)C2)cc1 (stereo not drawn)
translation activity (Trypanosoma cruzi; reporter mRNA translation, inhibitor, measured: Renilla luciferase mRNA; cell-free extract; concentration not given, test 2; reference: positive over negative control): 67.8% and 77.3%

CC1(C)CC(=O)C2=C(C1)Oc1cc(O)ccc1C2c1c[nH]c2ccccc12 (stereo not drawn)
IC50 (3T3-L1; cell growth or viability, MTT; 72 h): 25.9 µg/mL

CCOc1cncc(-c2ccc(NC(=O)C3(c4ccnc(NS(=O)(=O)C5CC5)n4)CCOCC3)nc2)n1
IC50 (KYSE-70; cell proliferation, CellTiter-Glo; 72 h, Oesophagus cancer): 0.094 µM

CC[C@H]1CC[C@H]2[C@@H]3C[C@@H](O)[C@@]4(O)C[C@H](N)CC[C@]4(C)[C@H]3CC[C@]12C
IC50 (BV-2; cell count, high content imaging; 24 h, uptake, myelin membrane debris, pHrodo): 1 µM

O=C1CCC(N2C(=O)c3ccc(N4CC(C(=O)N5CC(CN6CCC(CNC(=O)c7cccc(-c8noc(C(F)(F)F)n8)c7)(c7nc(-c8ccccc8)cs7)CC6)C5)C4)cc3C2=O)C(=O)N1 (stereo not drawn)
IC50 (JeKo-1; cell growth or viability; 7 days): 1.48 µM

C=C1C(=O)OC2C1CCC(C)(O)C13C=CC(C)(C21)C1(C3)C(=O)OC2C3C(C)C(=O)CC3C(=C)CC(OC(C)=O)C21 (stereo not drawn)
IC50 (AML12; lipid accumulation, Nile Red staining; with: palmitate/oleate): 4.59 ± 0.58 µM

CCCCCCCCCCCC(=O)Oc1c(C)c(OC)c2c(/C=C/c3ccccc3)c(CCCCCCCCCC)c(=O)oc2c1C
IC50 (FaDu; cell growth or viability, SRB; 72 h): > 50 µM
